Results gathered from unrelated publications.
Each numbered part is a random draw from the data of one study; scales do not carry over between parts.

Block 1
Target: Histone acetyltransferase KAT6A, winged helix 2, GST fusion (KAT6A, Homo sapiens, UniProt Q92794, residues 85-181)
Method: protein binding microarray
Molecule type: double-stranded DNA, one strand shown
Sample: in vitro
Tested at: not given
Notes: 8-mer, flanks averaged, mean of 2 arrays, mostly near background
Relative to: not given
Reading: higher = stronger binding
Construct (chain): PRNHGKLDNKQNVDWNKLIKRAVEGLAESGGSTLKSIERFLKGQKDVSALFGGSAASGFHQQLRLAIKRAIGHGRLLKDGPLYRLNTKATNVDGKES
`CATCCAGA` has an E-score of -0.0959.
With `CCCTAGAG` the E-score was 0.0675.
The E-score of `CTTCTTGC` is reported as 0.151.
The E-score of `CGTGGTTA` is reported as -0.241.
For `ATTTGTAA`, the E-score was 0.0899.
`AACACCGC` gave an E-score of 0.073.
`CCCCGCCA` has an E-score of 0.178.
`AGAGGTGC` has an E-score of -0.165.

Block 2
Target: Protein C-ets-1 (ETS1, Homo sapiens, UniProt P14921, residues 1-441, Y397A, full length assumed)
Method: protein-binding microarray
Molecule type: double-stranded DNA, one strand shown
Sample: in vitro
Tested at: not given
Notes: k-mer, scored over probes, only values ≥0.25
Reading: higher = stronger binding
Residues (chain): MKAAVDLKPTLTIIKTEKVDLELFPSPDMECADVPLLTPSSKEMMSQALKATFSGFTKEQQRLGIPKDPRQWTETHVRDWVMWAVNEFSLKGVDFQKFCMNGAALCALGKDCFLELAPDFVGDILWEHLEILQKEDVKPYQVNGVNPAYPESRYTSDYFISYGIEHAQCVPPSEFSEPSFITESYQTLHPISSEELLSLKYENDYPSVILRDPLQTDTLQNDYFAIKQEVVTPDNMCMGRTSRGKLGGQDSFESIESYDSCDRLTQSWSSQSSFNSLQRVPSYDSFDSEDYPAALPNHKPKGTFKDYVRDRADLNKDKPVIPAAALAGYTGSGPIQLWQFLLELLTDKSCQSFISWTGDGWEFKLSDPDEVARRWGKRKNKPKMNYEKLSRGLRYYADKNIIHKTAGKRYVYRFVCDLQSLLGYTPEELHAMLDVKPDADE
The E-score of `ACAAAATG` is reported as 0.316.
The E-score of `GCAAATAC` is reported as 0.261.
The E-score of `CGCCCACC` is reported as 0.261.
`AACTACAA` gave an E-score of 0.259.
With `CTATATAC` the E-score was 0.268.

Block 3
Target: Fragile X messenger ribonucleoprotein 1, C-terminal low-complexity region (Fmr1, Mus musculus, UniProt P35922)
Method: RNA Bind-n-Seq
Molecule type: RNA
Sample: in vitro
Tested at: 200 nM
Notes: whole 134-nt RNA, ends assumed
Together with: 150 mM KCl
Relative to: input library
Reading: higher = stronger binding
All sequences stand within: GGGAGUUCUACAGUCCGACGAUC … UGGAAUUCUCGGGUGUCAAGG
With `GCCUGGCGCUGGCCAACAAUAGCACCCUCACCAUUGGCACCAUCGAUGAGAUCCAGAAGCUGCACAUUCGCACAGUUCCCCUCUAUGAGU` the log2 enrichment was 0.723.
`CUCAAGUCCUGUGCUACACAUCGUAUGUACCGAAUCGGAAAGGUUUUUGGUGGAAAGUAUUAUGUUACGCCGUUCGGAUCUGCACUUCCA` has a log2 enrichment of -0.317.
The log2 enrichment of `UUUUUUGUAGUAGGGAGAUCCUUGAUCAUCAGGAUGGUAAUGUAGAAGAUGAUGGGCUUACAGGACUCCUAAGGCUUGCAACAAGUGUUG` is reported as 0.556.
With `GUCCUGUGCUACACAUCGUAUGUACCGAAUCGGGGAAAAAGGGGAAAAAGGAAAAAGGAAAGUAUUAUGUUACGCCGUUCGGAUCUGCAC` the log2 enrichment was -0.211.
`CAAGUCCUGUGCUACACAUCGUAUGUACCGAAUCGGGAAAAAGGGAGGGUUUGGGAAAGUAUUAUGUUACGCCGUUCGGAUCUGCACUUC` gave a log2 enrichment of 0.826.
The log2 enrichment of `UGGGAGGUGGAUUUUGUUUAUUUUUUUAGCUCAUUUCCAGGGGUGGGAAUUUUUUUUUAAUAUGUGUCAUGAAUAAAGUUGUGUUUGAAA` is reported as 0.39.

Other studies, line by line
The fold induction of `PhoQ, residues 284 288 289 292 302 303 TNSAEL` is reported as 17.8 (PhoP, residues 12 14 15 18 19 QQAYL (Escherichia coli, UniProt P23836); Sort-seq, refers to: YFP reporter; E. coli; PhoQ-PhoP variant library, together with: 10 µM Mg2+; relative to: high Mg2+ state, higher = stronger signaling).

For quick reference, copied from above (block 3):
`CUCAAGUCCUGUGCUACACAUCGUAUGUACCGAAUCGGAAAGGUUUUUGGUGGAAAGUAUUAUGUUACGCCGUUCGGAUCUGCACUUCCA` has a log2 enrichment of -0.317.
The log2 enrichment of `UUUUUUGUAGUAGGGAGAUCCUUGAUCAUCAGGAUGGUAAUGUAGAAGAUGAUGGGCUUACAGGACUCCUAAGGCUUGCAACAAGUGUUG` is reported as 0.556.
